Measured values gathered from unrelated publications.
Lines come from different studies, so protocols differ. “And” joins repeats or separate records; there may be more than shown. ± gives the spread as reported.

SMILES | test | test system | setting | scale | measurement | value
CCc1c(C)nc(-c2ccc(Cl)s2)nc1Nc1ccc(CC(=O)O)cc1 |  | C57BL/6J mice, MCD diet | intraperitoneal, 0.3 mg/kg daily, MCD diet 6 weeks, dosed last two | relative to: vehicle | serum ALP | decreased
O=C(COc1ccc(Cl)cc1)NC12CC(c3nnc([C@H]4C[C@@H](OC(F)(F)F)C4)o3)(C1)C2 |  | healthy human, PBMC | oral, 45 mg single dose, day 1, 4 h post-dose, median, added: sodium arsenite ex vivo | relative to: baseline | CHAC1 mRNA change | -20.4%
C[C@H](Oc1ccc(Br)cc1-c1ccon1)C(=O)O | first response latency | human, tibialis anterior muscle | 200 mg, 30 Hz, single ascending dose |  | difference from placebo | 0.24%
Cc1cc(/C=C2\Oc3cc(OCC4CC4)ccc3C2=O)cc(C)c1OC(C)(C)C(=O)O |  | db/db mice on MCD diet | oral, 30 mg/kg daily, 45 days |  | serum HDL level | increased
Oc1nc2nonc2cc1Nc1c(F)c(F)c(F)c(F)c1F |  | obese C57BL/6J mice, Western diet 19 weeks | oral gavage, 130 mg/kg/day, fasted |  | serum glucose and insulin | decreased
COc1ccc(-c2cncc(N[C@@H](C)c3cccc(NC(=O)c4cncc(C)c4)c3)n2)cc1OC | refers to: rno-miR-138-5p | rat SU5416/hypoxia model, lung | dose not given | relative to: SU5416/hypoxia vehicle | fold change | 0.758
CSCCNc1nc(SCCC(F)(F)F)nc2c1ncn2[C@@H]1O[C@H](COP(=O)(O)OP(=O)(O)C(Cl)(Cl)P(=O)(O)O)[C@@H](O)[C@H]1O | platelet aggregation, light transmission aggregometry | human patients, platelet-rich plasma | dose not given, 2 h, added: TRAP 15 µM |  | patients with IPA above 80% | 5%
Cc1noc(C)c1-c1cc(C(O)(c2ccccn2)c2ccccn2)c2nc(C3CC3)[nH]c2c1 | refers to: CCR2 expression | human, peripheral blood | 3 mg, day 1, 1604 study, added: enzalutamide |  | maximum inhibition | 35%
Cn1cc(Nc2nccc(-c3ccc4c(c3)CN(C3COC3)CC[C@H]4NC(=O)c3cn(C(C)(C)C)nn3)n2)cn1 | refers to: thyroid cancer signaling | splenic B cells, mice | 30 mg/kg, IgD-activated in vivo | relative to: vehicle, direction not given | pathway activation z-score | 2.11
O=C(O)CNC(=O)Cc1ccccc1 |  | ventricular cardiomyocytes, C57BL/6 mouse | dose not given, 0.66 s |  | sarcomere length | 1.72 µm
NC(=O)c1cnc2[nH]ccc2c1N[C@@H]1[C@@H]2CC3C[C@H]1C[C@@](O)(C3)C2 | flow cytometry | Japanese healthy men, blood | oral, 10 mg twice daily, 72 h after day 7 dose | relative to: baseline | CD4+CD28+ naive T-cell change | -4.67%
CC(=O)NCC(=O)NCC(=O)N[C@H](C(=O)N[C@@H](Cc1ccc(O)cc1)C(=O)N[C@@H](CO)C(=O)N[C@H]1CSSC[C@@H](C(=O)N[C@@H](CCCNC(=N)N)C(=O)N2CCC[C@H]2C(=O)N[C@@H](CCC(N)=O)C(=O)N[C@@H](CCCNC(=N)N)C(=O)NCC(=O)NCCC(=O)N[C@@H](CCCCNC(=O)CN(CC(=O)NCCCC[C@H](NC(=O)CCNC(=O)CNC(=O)[C@H](CCCNC(=N)N)NC(=O)[C@H](CCC(N)=O)NC(=O)[C@@H]2CCCN2C(=O)[C@H](CCCNC(=N)N)NC(=O)[C@@H]2CSSC[C@H](NC(=O)[C@H](CO)NC(=O)[C@H](Cc3ccc(O)cc3)NC(=O)[C@@H](NC(=O)CNC(=O)CNC(C)=O)[C@@H](C)O)C(=O)N[C@@H](Cc3c[nH]cn3)C(=O)N[C@@H](Cc3ccccc3)C(=O)NCC(=O)N[C@@H](C)C(=O)N[C@@H](CC(C)C)C(=O)N[C@@H]([C@@H](C)O)C(=O)N[C@@H](Cc3c[nH]c4ccccc34)C(=O)N[C@@H](C(C)C)C(=O)N2)C(N)=O)C(=O)CCN)C(N)=O)NC(=O)[C@H](C(C)C)NC(=O)[C@H](Cc2c[nH]c3ccccc23)NC(=O)[C@H]([C@@H](C)O)NC(=O)[C@H](CC(C)C)NC(=O)[C@H](C)NC(=O)CNC(=O)[C@H](Cc2ccccc2)NC(=O)[C@H](Cc2c[nH]cn2)NC1=O)[C@@H](C)O |  | healthy BALB/c mice | subcutaneous, 0.08 mg/kg, 8 d, single dose |  | reticulocytes | 5.5%
N#Cc1ccn2c(-c3ccncc3)c(-c3ccc(F)cc3)nc2c1 | kinase binding, competitor, MIB/MS competition, refers to: MKK2 | Candida albicans cell lysate | 100 nM | relative to: DMSO | log2 fold change | -0.146
N#Cc1ccc2c(c1)[C@H]1CCCN(C(=O)c3ccc4[nH]cnc4c3)[C@H]1C2 |  | human, urine | 20 mg, 24 h, day 1 over day -1 | relative to: placebo and baseline | total urinary corticosteroids | 68.7 % change
C[C@H](NC(=O)c1c(C(F)F)nn(C)c1Oc1cccc(C(F)(F)F)c1)c1ccc(C(=O)O)cc1 |  | human, advanced tumours | 250 mg, irRECIST |  | progressive disease | 37.5%
C[C@]12CC[C@@H]3c4ccc(O)cc4C[C@@H](CCCCCCCCC[S+]([O-])CCCC(F)(F)C(F)(F)F)[C@H]3[C@@H]1CC[C@@H]2O (stereo partly drawn) |  | female nude mouse LCC2 xenograft | 2.0 mg/kg, day 11, tamoxifen-resistant |  | tumour volume | 79.7 mm3 and 69 mm3 and 79.5 mm3 and 77.7 mm3 and 137 mm3 and 60.4 mm3 and 82 mm3
COc1cc(Nc2ncc3c(n2)-c2ccc(Cl)cc2C(c2c(F)cccc2OC)=NC3)ccc1C(=O)O |  | mouse, NB-1643 neuroblastoma xenograft | 2.6 mg/kg | direction not given | median response score | 0
CCN1CCN(Cc2ccc(Nc3ncc(F)c(-c4cc(F)c5nc6n(c5c4)[C@H](C)CCC6)n3)nc2)CC1 |  | human advanced solid tumours | 300 mg, phase Ia monotherapy RECIST 1.1 |  | partial response | 0%
C[C@@H]1COCCN1c1cc([C@]2(O)C[C@H]3CC[C@@H](C2)O3)c2cnn(-c3cc[nH]n3)c2n1 |  | CW-2 colon xenograft mice | 10 mg/kg once daily for 7 days, day 14 |  | tumour growth inhibition | 68.4 ± 4.9%
CC1(C)CCC(CN2CCN(c3ccc(C(=O)NS(=O)(=O)c4ccc(NCC5CCOCC5)c([N+](=O)[O-])c4)c(Oc4cnc5[nH]ccc5c4)c3)CC2)=C(c2ccc(Cl)cc2)C1 | cell killing | primary canine neoplastic T cells, dog 16 | 24 h |  | EC50 | 37 nM
CN(C)C(=O)Oc1cccc([N+](C)(C)C)c1 |  | rat cisatracurium-induced neuromuscular block | 0.025 mg/kg |  | twitch response | 46.4% and 52.7% and 22.3% and 46.9%
Cc1cnc(Nc2ccc(OCCN3CCCC3)cc2)nc1Nc1cccc(S(=O)(=O)NC(C)(C)C)c1 |  | BALB/c mice rhEPO-induced polycythemia | 120 mg/kg |  | reticulocytes | 10% and 9.44% and 10.8% and 9.97% and 9.37% and 10.1%
CCCN1CCCC[C@H]1C(=O)Nc1c(C)cccc1C |  | Sprague-Dawley rat, male | sciatic nerve injection, 15 mM |  | motor block | 100 % MPE

SMILES | test | test system | setting | scale | measurement | value
O=C(O)CCc1nccc2c3ccccc3n(Cc3ccc(Br)c4ccccc34)c12 |  | mouse, acute hyperuricaemia model | oral, 2 mg/kg |  | decrease in serum uric acid | 74.5%
CO[C@H]1CC[C@H](N2C(=O)CNc3ncc(-c4ccc(C(C)(C)O)nc4)nc32)CC1 | flow cytometry | stimulated monocytes, human, blood | 60 mg single dose, 24 h, mean | relative to: baseline | pAKT change from baseline | 30.2%
CCOC(=O)c1c(NC(=O)CNC(C)C)sc2c1CCCCC2 | epileptiform activity, EEG | mouse APP J20 | 75 mg/kg |  | reduction of NREM spike rate | ~50%
Cc1n[nH]c2ccc(-c3cc(OC[C@@H](N)Cc4ccccc4)cnc3-c3ccoc3)cc12 | kinase binding, competitor, MIB/MS competition, refers to: KIN2 | Candida albicans cell lysate | 100 nM | relative to: DMSO | log2 fold change | -0.0805
C[C@H]1O[C@@H](O[C@H]2CC[C@@]3(C)[C@@H](CC[C@]4(C)[C@@H]3C=C[C@]35OC[C@@]6(CCC(C)(C)C[C@H]63)[C@@H](O)C[C@]54C)[C@]2(C)CO)[C@H](O)[C@@H](O[C@@H]2O[C@H](CO)[C@@H](O)[C@H](O)[C@H]2O)[C@H]1O |  | chronic-plus-binge ethanol mice | oral, 10 mg/kg/day for 7 d, 168 h |  | body weight change | -0.5 g and -0.2 g and -0.3 g and -0.7 g and -0.6 g
O=C1Nc2cc3[nH]nc(-c4ccncc4)c3cc2CN1Cc1ccccc1 | RECIST v1.1 | human, relapsed or refractory advanced solid tumours | intravenous, 7.2 mg/kg, pooled schedules |  | progressive disease, best response | 40%
N#Cc1ccc2c(-c3ccncc3)c(-c3ccc(F)cc3)nn2c1 | kinase binding, competitor, MIB/MS competition, refers to: PBS2 | Candida albicans cell lysate | 100 nM | relative to: DMSO | log2 fold change | 0.136
OC(CCN1CCCCC1)(c1ccccc1)C1CC2C=CC1C2 (stereo not drawn) | resting-state EEG | healthy elderly humans | oral, 2 mg, eyes closed, LS mean | relative to: baseline | change in EEG Alpha1-power Pz-O2 | -20.4%
CC[C@@H]1[C@H](F)C(=O)N[C@@H]1COc1nccc2cc(C(N)=O)c(OC)cc12 | ATP-site probe binding, ActivX profiling, refers to: MAP3K2, MAP3K3 | THP-1 cell lysate | 0.01 mM, Lys2 site |  | inhibition | 8.7%
CCN(Cc1nc2c(N)nc3cc(-c4cc[nH]n4)ccc3c2[nH]1)C(C)=O | immunohistochemistry, refers to: PD-L1+ immune cells | patients with advanced solid tumours, injected tumour lesions | dose not given, monotherapy |  | patients with increased cells | 50%
COc1ccc(F)cc1C(=O)NCc1ccc(-c2nn([C@@H](C)C(F)(F)F)c(N)c2C(N)=O)cc1 |  | OCI-Ly10, mouse xenograft | oral, 10 mg/kg twice daily, day 28, 672 h |  | tumour growth inhibition | 88%
OCC(O)CO | ELISA | male Slc25a13-/- Gpd2-/- mice, serum | drinking water, 5% w/v, 2 days |  | FGF21 level | 2490 pg/mL and 2310 pg/mL and 737 pg/mL and 936 pg/mL and 545 pg/mL
CN(C)C(=O)c1cc2cnc(Nc3ccc(N4CCNCC4)cn3)nc2n1C1CCCC1 | RNA-seq GSEA, refers to: HALLMARK_HEME_METABOLISM | MB002 tumour | concentration not given, in vivo | relative to: vehicle, direction not given | GSEA enrichment score | -0.267
Cc1cc(-c2nnc(N)nc2-c2ccc(F)cc2)cc(Cl)n1 | NanoString, refers to: TH17.Medi.IO signature | human mCRPC, peripheral blood | dose not given, 2 or 4 weeks | relative to: baseline, direction not given | GSVA score change | 0.241
CC(C)[C@H](C(=O)Nc1ccc(C(=O)NO)cc1)c1ccccc1 |  | human, right ear | 2 weeks after treatment |  | pure tone average | 55 dB
C[C@H]1C[C@H]2CSC(N)=N[C@@]2(c2nc(NC(=O)c3ccc(OC(F)F)cn3)cs2)CO1 | refers to: total Aβ | healthy adults, plasma | 400 mg single dose, 24 h post-dose | relative to: placebo | percent change from baseline | -58.2%
COc1cc2cc(-c3ccc(CC(=O)Nc4cc(C(C)(C)C(F)(F)F)no4)cn3)cnc2cc1OC |  | human RET-altered advanced solid tumours | dose not given, phase I total, RECIST 1.1 |  | progressive disease as best response | 18%
N#Cc1ccc2c(c1)[C@H]1CCCN(C(=O)c3ccc4[nH]cnc4c3)[C@H]1C2 | refers to: FPG | human, Phase II trial | oral, 240 mg once daily, day 28, adjusted mean, SE |  | change from baseline | 6.1 mg/dL
C=CCn1c(=O)c2cnc(Nc3ccc(N4CCN(C)CC4)cc3)nc2n1-c1ccc2c(n1)[C@@](O)(CC)CC2 |  | JIMT-1 xenograft, NOD/SCID mouse | oral, 60 mg/kg once daily for 28 days, day 29 |  | tumour volume difference | 286 ± 11.1 mm3
CC1(C)CCC2(CC1)N[C@@H](C(=O)N[C@@H]1CC[C@@H](C(N)=O)OC1)[C@H](c1ccnc(Cl)c1F)[C@]21C(=O)Nc2cc(Cl)ccc21 |  | human, solid tumours | 90 mg/day, RECIST | relative to: patients | progressive disease | 30%
CC(C)NCC(O)c1ccc(O)c(O)c1 (stereo not drawn) |  | ventricular cardiomyocytes, C57BL/6 mouse | dose not given, 0.672 s |  | sarcomere length | 1.72 µm
CN(C(=O)n1cnc(-c2ccc[n+]([O-])c2)c1)C1CCCCC1 | refers to: OEA | human, plasma | 10 mg single dose |  | AUC(0-t) | 709 ng·h/mL

For quick reference, copied from above:
SMILES | test | test system | setting | scale | measurement | value
CN(C)C(=O)c1cc2cnc(Nc3ccc(N4CCNCC4)cn3)nc2n1C1CCCC1 | RNA-seq GSEA, refers to: HALLMARK_HEME_METABOLISM | MB002 tumour | concentration not given, in vivo | relative to: vehicle, direction not given | GSEA enrichment score | -0.267
N#Cc1ccc2c(c1)[C@H]1CCCN(C(=O)c3ccc4[nH]cnc4c3)[C@H]1C2 | refers to: FPG | human, Phase II trial | oral, 240 mg once daily, day 28, adjusted mean, SE |  | change from baseline | 6.1 mg/dL
Cc1cc(/C=C2\Oc3cc(OCC4CC4)ccc3C2=O)cc(C)c1OC(C)(C)C(=O)O |  | db/db mice on MCD diet | oral, 30 mg/kg daily, 45 days |  | serum HDL level | increased
N#Cc1ccc2c(-c3ccncc3)c(-c3ccc(F)cc3)nn2c1 | kinase binding, competitor, MIB/MS competition, refers to: PBS2 | Candida albicans cell lysate | 100 nM | relative to: DMSO | log2 fold change | 0.136
